Assay results of several laboratories.
Every numbered part comes from another study and shows a few of its results, in no order.
Chain of UniProt Q96SB4 (whole entry, looked up): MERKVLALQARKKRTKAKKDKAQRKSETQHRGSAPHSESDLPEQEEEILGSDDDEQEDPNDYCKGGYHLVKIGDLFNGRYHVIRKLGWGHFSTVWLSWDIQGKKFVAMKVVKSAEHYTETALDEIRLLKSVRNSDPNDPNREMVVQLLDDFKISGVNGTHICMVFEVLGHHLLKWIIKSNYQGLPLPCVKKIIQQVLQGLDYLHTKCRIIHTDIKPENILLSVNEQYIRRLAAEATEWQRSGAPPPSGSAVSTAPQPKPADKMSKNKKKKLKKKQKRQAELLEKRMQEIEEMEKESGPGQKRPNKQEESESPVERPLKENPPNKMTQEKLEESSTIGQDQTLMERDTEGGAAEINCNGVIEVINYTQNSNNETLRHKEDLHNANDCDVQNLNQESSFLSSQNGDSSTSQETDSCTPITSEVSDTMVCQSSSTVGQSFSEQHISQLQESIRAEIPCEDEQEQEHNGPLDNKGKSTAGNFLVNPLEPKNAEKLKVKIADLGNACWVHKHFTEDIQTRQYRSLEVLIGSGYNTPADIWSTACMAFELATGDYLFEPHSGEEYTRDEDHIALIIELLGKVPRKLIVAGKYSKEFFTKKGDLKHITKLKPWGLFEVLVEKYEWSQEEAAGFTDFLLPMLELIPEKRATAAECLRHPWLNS
Chain of UniProt Q9H2K8 (whole entry, looked up): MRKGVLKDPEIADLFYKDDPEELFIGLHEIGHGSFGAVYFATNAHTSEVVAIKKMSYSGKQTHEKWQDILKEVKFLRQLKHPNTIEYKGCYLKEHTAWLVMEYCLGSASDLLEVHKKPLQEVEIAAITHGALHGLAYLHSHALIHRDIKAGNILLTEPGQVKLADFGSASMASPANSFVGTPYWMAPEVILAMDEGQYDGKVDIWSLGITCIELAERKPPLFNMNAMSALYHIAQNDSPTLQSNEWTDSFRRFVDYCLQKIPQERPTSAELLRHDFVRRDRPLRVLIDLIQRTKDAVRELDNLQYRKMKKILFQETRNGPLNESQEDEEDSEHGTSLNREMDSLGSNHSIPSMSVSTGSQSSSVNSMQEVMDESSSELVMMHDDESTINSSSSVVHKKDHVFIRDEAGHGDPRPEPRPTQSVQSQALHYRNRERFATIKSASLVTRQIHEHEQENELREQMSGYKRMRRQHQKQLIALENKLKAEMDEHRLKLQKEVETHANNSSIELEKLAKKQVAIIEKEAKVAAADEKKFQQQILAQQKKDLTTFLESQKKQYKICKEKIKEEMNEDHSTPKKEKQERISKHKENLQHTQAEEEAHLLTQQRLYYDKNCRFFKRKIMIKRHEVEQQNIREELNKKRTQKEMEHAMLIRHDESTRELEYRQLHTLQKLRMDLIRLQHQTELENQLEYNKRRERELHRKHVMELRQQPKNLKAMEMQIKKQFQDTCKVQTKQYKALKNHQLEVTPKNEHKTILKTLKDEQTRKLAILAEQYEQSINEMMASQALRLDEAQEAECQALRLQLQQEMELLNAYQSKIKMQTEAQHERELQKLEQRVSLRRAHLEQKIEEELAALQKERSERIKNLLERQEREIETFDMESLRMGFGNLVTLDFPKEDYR
Chain of UniProt O75716 (whole entry, looked up): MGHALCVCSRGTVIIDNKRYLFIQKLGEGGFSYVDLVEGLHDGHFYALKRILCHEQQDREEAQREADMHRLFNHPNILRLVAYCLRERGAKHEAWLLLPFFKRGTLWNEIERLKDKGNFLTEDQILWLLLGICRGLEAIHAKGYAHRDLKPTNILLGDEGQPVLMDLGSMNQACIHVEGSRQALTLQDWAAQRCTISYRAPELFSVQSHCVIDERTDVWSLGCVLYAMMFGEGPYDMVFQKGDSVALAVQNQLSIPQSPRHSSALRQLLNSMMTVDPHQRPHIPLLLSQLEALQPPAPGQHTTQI
Chain of UniProt Q13873 (whole entry, looked up): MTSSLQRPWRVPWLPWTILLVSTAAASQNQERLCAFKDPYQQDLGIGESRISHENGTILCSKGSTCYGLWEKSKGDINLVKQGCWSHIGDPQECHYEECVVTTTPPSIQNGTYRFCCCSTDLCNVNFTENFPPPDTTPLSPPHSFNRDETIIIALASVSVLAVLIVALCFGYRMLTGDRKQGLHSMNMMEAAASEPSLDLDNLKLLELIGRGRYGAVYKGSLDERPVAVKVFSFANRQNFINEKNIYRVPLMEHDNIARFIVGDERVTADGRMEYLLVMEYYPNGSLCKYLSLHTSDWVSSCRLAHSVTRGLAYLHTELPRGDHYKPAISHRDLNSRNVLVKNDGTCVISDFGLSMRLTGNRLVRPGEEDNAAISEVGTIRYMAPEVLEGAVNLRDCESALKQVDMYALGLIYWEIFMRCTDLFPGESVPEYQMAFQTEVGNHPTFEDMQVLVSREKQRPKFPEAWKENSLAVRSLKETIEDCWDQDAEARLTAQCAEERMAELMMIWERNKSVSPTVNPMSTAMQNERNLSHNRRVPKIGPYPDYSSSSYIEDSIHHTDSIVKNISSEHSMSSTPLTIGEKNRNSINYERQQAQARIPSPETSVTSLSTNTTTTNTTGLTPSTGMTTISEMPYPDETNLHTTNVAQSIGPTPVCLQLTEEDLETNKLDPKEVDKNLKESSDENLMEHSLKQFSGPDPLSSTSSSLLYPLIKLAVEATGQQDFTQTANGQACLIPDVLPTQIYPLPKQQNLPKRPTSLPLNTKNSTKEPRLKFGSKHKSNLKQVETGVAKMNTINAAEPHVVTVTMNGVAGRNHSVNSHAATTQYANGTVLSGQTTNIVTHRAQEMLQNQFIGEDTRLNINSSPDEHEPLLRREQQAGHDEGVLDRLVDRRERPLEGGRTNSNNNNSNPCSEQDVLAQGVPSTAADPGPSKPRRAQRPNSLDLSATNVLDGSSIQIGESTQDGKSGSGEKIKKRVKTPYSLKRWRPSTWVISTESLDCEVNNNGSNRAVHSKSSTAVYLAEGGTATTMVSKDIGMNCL
Chain of UniProt Q09013 (whole entry, looked up): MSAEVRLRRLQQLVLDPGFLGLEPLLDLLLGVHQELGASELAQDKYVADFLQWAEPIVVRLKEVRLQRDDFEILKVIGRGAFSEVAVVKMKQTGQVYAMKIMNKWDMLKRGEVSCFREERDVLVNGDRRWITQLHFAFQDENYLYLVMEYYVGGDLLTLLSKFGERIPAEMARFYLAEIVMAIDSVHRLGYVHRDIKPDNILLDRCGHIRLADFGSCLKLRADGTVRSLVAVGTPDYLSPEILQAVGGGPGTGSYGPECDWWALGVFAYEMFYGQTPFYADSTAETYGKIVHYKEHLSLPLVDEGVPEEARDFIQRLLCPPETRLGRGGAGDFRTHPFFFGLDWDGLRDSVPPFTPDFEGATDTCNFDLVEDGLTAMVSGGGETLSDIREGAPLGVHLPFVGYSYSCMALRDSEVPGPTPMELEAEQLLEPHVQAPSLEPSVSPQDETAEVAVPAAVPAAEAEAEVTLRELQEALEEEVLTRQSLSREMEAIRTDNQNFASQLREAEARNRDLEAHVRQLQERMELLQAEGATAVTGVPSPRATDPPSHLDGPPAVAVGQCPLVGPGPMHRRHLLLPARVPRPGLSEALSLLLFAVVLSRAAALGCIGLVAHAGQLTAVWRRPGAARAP

Sample 1
Organism: Sarcocystis neurona
Read-out: parasite growth
Concentration: 10 µM
Time: 96 h
Setting: secondary screen
| SMILES | inhibition |
| --- | --- |
| O=C(O)c1cc(/N=N/c2ccc(S(=O)(=O)Nc3ccccn3)cc2)ccc1O | -29.4% |
| Cc1ncc([N+](=O)[O-])n1CCO | -17.8% |
| CC=CC(=O)N(CC)c1ccccc1C (mixture of isomers) | -25.2% |
| O=c1cnn([C@@H]2O[C@H](CO)[C@@H](O)[C@H]2O)c(=O)[nH]1 | -16.8% |
| CN1[C@@H]2C[C@@H](OC(=O)[C@H](CO)c3ccccc3)C[C@H]1[C@@H]1O[C@@H]12 | -21.7% |

Sample 2
SMILES: O=C(NC[C@@H]1[C@H]2CN(C(=O)OCc3cc(C(F)(F)F)cc(C(F)(F)F)c3)C[C@@H]12)c1ccc2[nH]nnc2c1
Concentration: 1 µM
| target | read-out | technique | remaining binding [%] |
| --- | --- | --- | --- |
| Fibroblast growth factor receptor 1 (FGFR1, Homo sapiens, UniProt P11362) | cell-free assay | competition with immobilised ligand | 90 |
| SRSF protein kinase 1 (SRPK1, Homo sapiens, UniProt Q96SB4) | cell-free assay | competition with immobilised ligand | 81 |
| Epidermal growth factor receptor (EGFR, Homo sapiens, UniProt P00533, del746-750) | cell-free assay | competition with immobilised ligand | 72 |
| Receptor-type tyrosine-protein kinase FLT3 (FLT3, Homo sapiens, UniProt P36888, D835V/ITD) | cell-free assay | competition with immobilised ligand | 85 |
| Serine/threonine-protein kinase TAO3 (TAOK3, Homo sapiens, UniProt Q9H2K8) | cell-free assay | competition with immobilised ligand | 88 |
| Myotonin-protein kinase (DMPK, Homo sapiens, UniProt Q09013) | cell-free assay | competition with immobilised ligand | 94 |
| Cyclin-dependent kinase 13 (CDK13, Homo sapiens, UniProt Q14004) | cell-free assay | competition with immobilised ligand | 85 |
| Mitogen-activated protein kinase kinase kinase 19 (MAP3K19, Homo sapiens, UniProt Q56UN5) | cell-free assay | competition with immobilised ligand | 100 |
| AP2-associated protein kinase 1 (AAK1, Homo sapiens, UniProt Q2M2I8) | binding |  | 96 |
| Bone morphogenetic protein receptor type-1B (BMPR1B, Homo sapiens, UniProt O00238) | cell-free assay | competition with immobilised ligand | 95 |
| Serine/threonine-protein kinase 10 (STK10, Homo sapiens, UniProt O94804) | cell-free assay | competition with immobilised ligand | 100 |
| Bone morphogenetic protein receptor type-2 (BMPR2, Homo sapiens, UniProt Q13873) | cell-free assay | competition with immobilised ligand | 90 |
| Serine/threonine-protein kinase 16 (STK16, Homo sapiens, UniProt O75716) | cell-free assay | competition with immobilised ligand | 100 |

Sample 3
Target: Mitogen-activated protein kinase kinase kinase 9 (MAP3K9, Homo sapiens, UniProt P80192)
Chain of UniProt P80192 (whole entry, looked up): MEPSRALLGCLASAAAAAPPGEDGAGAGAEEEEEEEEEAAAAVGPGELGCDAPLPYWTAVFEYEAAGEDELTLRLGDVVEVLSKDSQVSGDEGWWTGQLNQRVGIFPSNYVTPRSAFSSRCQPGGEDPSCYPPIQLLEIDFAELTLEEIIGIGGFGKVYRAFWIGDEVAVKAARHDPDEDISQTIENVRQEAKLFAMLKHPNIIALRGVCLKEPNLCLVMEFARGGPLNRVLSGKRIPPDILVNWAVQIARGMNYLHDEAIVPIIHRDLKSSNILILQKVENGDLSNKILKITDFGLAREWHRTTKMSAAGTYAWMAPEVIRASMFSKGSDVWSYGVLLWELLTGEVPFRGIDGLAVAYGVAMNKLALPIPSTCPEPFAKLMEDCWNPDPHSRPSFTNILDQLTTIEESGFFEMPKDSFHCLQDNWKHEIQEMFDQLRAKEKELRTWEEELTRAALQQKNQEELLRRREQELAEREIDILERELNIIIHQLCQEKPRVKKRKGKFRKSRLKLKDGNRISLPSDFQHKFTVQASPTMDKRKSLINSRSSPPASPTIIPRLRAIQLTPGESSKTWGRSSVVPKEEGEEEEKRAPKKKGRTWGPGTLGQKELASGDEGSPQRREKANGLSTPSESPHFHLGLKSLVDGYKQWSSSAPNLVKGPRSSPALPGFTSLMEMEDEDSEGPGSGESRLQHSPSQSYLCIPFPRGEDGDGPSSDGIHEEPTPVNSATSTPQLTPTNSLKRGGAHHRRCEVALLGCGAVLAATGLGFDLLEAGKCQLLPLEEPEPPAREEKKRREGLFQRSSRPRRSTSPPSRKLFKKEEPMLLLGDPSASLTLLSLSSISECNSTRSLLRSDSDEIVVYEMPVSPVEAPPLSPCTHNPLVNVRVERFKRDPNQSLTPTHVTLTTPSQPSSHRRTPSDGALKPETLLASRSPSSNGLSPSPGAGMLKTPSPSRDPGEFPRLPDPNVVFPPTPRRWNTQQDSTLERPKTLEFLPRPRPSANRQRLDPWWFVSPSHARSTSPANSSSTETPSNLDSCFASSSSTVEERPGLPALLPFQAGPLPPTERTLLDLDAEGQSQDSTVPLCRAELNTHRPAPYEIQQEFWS
Read-out: enzyme activity
Mode: inhibitor
Concentration: 0.5 µM
Relative to: control
| SMILES | remaining activity |
| --- | --- |
| Cc1nc(-c2ccccc2)c(-c2ccncc2)o1 | 79.4% |
| Nc1ncnc2n[nH]c(Nc3ccc(F)cc3)c12 | 100% |
| COc1ccc(CNC(=O)Nc2ncc([N+](=O)[O-])s2)cc1 | 101% |
| Oc1ccc(-c2nc(-c3ccncc3)c(-c3ccc(F)cc3)[nH]2)cc1 | 53.1% |
| Cn1sc(=O)n(Cc2ccccc2)c1=O | 99.4% |
| CCOC(=O)c1c(C)[nH]c(/C=C2\C(=O)Nc3ccccc32)c1C | 61.6% |
| O=S(=O)(c1cccc2cnccc12)N1CCCNCC1 | 94.4% |
| CO[C@H]1C[C@@H]2CC[C@@H](C)[C@@](O)(O2)C(=O)C(=O)N2CCCC[C@H]2C(=O)O[C@H]([C@H](C)C[C@@H]2CC[C@@H](O)[C@H](OC)C2)CC(=O)[C@H](C)/C=C(\C)[C@@H](O)[C@@H](OC)C(=O)[C@H](C)C[C@H](C)/C=C/C=C/C=C/1C | 87.3% |
| COc1cc2ncnc(Nc3ccc(Oc4ccccc4)cc3)c2cc1OC | 57.7% |
| O=C1NC(=O)C(c2cn(CCCn3ccnc3)c3ccccc23)=C1Nc1ccccc1 | 30.6% |
| COc1ccc(C(=O)Nc2sc3c(c2C(N)=O)CCCC3)cc1OC | 100% |
| O=c1c2ccccc2[nH]c(=S)n1CCN1CCC(=C(c2ccc(F)cc2)c2ccc(F)cc2)CC1 | 111% |
| OCC(O)CCON=C1C(c2c(O)[nH]c3ccccc23)=Nc2ccccc21 (stereo not drawn) | 7.06% |
| Cn1c2ccccc2c2c3c(c4c5ccccc5n(CCC#N)c4c21)CNC3=O | 1.49% |
| N#CC(C#N)=C(N)/C(C#N)=C/c1ccc(O)cc1 | 94.4% |

Sample 4
Host: mouse
Medium: microsomes or S9
Concentration: 2 µM
Time: 0.5 h
| SMILES | remaining compound |
| --- | --- |
| COc1cc(Br)c(S(=O)(=O)NCCOc2ccc(C(C)(C)C)cc2)cc1OC | 1.95% |
| COc1ccc(C)cc1N(C)C(=O)c1cc2ccc3cccnc3c2[nH]1 | 0.279% |
| CN(CCOC(=O)c1ccc(C(C)(C)C)cc1)C1=NS(=O)(=O)c2ccccc21 | < 1% |
| Cc1nn2c(-c3ccccc3)c(C#N)nnc2c1-c1ccccc1 | 75% |
| COc1cc(Br)c(/C=C2\Oc3ccccc3C2O)cc1OC (stereo not drawn) | > 99.9% |
| CCOc1cc2c(cc1CNc1ccnc3c1cnn3C)OC(C)C2 (stereo not drawn) | 0.0415% |
